Results pooled from the literature.

Under “adverse event incidence”, `CCO[C@H]1CCN(Cc2c(OC)cc(C)c3[nH]ccc23)[C@H](c2ccc(C(=O)O)cc2)C1` is recorded as 0% (item: dry throat; PNH patients with active haemolysis; oral, 200 mg, extension phase).
Under “adverse event incidence”, `Cc1c(C(=O)O)ccc2c3n(nc12)[C@@H]1[C@H](C3)N(CC2CC2)[C@@]2(C(=O)Nc3cc(Cl)ccc32)[C@H]1c1cccc(Cl)c1F` is recorded as 0% (phase Ia trial, item: Alopecia; cancer patients; oral, dose not given, all patients grade ≥3).
For `FC(F)(F)c1ccc(CNc2ccc(Cc3c[nH]c4ncc(Cl)cc34)cn2)cn1`, “adverse event incidence” read 17% (item: neutropenia; patients with advanced solid tumours; oral, dose not given, grade 1 and 2, possibly related to drug).
`C[C@H]1[C@H]2N(C(=O)CN(C)N2C(=O)NCc2ccccc2)[C@@H](Cc2ccc(OP(=O)(O)O)cc2)C(=O)N1Cc1cccc2cccnc12`: “adverse event incidence” 20% (item: Diarrhoea; HIV/HCV haemophilia cirrhosis; concentration not given, phase I trial).
`CC(=O)O[C@H]1C(=O)[C@@]2(C)[C@H]([C@H](OC(=O)c3ccccc3)[C@]3(O)C[C@H](OC(=O)[C@H](O)[C@@H](NC(=O)c4ccccc4)c4ccccc4)C(C)=C1C3(C)C)[C@]1(OC(C)=O)CO[C@@H]1C[C@@H]2O`: “adverse event incidence” 2% (item: blood alkaline phosphatase increased; patients with advanced solid tumours; intravenous, dose not given, grade 3 and 4, possibly related to drug).
`O=C1CCc2ccc(OCCCCN3CCN(c4cccc(Cl)c4Cl)CC3)cc2N1` — result for “adverse event incidence”: 8.2% (item: Akathisia; genotyped patients, CYP2D6 intermediate metabolizers; dose not given, long-acting oral or depot).
For `NCCONC(=O)[C@@H]1CC[C@@H]2CN1C(=O)N2OS(=O)(=O)O`, “adverse event incidence” read 0% (item: urinary red blood cells positive; healthy Chinese men; intravenous, 1 g, treatment-emergent).
`Cc1c(Cl)c(C)[n+]([O-])c(Cl)c1-c1noc(-c2cc(O)c(O)c([N+](=O)[O-])c2)n1` — result for “adverse event incidence”: 13.3% (item: Mild severity; healthy Chinese subjects; oral, 50 mg, 10 days).

Excerpt of the above:
`Cc1c(Cl)c(C)[n+]([O-])c(Cl)c1-c1noc(-c2cc(O)c(O)c([N+](=O)[O-])c2)n1` — result for “adverse event incidence”: 13.3% (item: Mild severity; healthy Chinese subjects; oral, 50 mg, 10 days).
